Earlier results as cited in several papers.
Lines come from different studies, so protocols differ. ± marks the error that the study gave.
Sequence of UniProt P0DOF5 (whole entry, looked up): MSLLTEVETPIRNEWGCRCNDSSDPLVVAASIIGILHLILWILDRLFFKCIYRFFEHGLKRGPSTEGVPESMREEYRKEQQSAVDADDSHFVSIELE

`Cc1c(O)cccc1C(=O)N[C@@H](CSc1ccccc1)[C@H](O)CN1C[C@H]2CCCC[C@H]2C[C@H]1C(=O)NC(C)(C)C`: “concentration for complete inhibition” greater than 10 µM (SARS-CoV; viral replication; not reached).
`Nc1ncnc2c([C@@H]3N[C@H](CO)[C@@H](O)[C@H]3O)c[nH]c12` gave an EC50 of 4.4 to 6.7 µM (Marburg virus; viral replication).
For `M2 transmembrane domain (Influenza A virus, UniProt P0DOF5)`, the pKa was less than 5 (solid-state NMR, refers to: His37; lipid bilayers; tetramer, fourth protonation).
`NC(=O)c1nc(F)c[nH]c1=O` — result for “highest dose tested”: 300 mg/kg (Lassa virus; mouse; oral).
The IC50 of `Cc1cnc(C(=O)N[C@H]2CCCCC/C=C\[C@@H]3C[C@@]3(C(=O)NS(=O)(=O)C3CC3)NC(=O)[C@@H]3C[C@@H](Oc4nc5ccccc5c5ccccc45)CN3C2=O)cn1` is reported as 6 µM (SARS-CoV-2; viral replication; Vero E6).
`CCN(CC)CCCC(C)Nc1ccnc2cc(Cl)ccc12` (centres unmarked) gave an EC50 of 16 µM (Ebola virus; viral replication; Vero E6, eGFP reporter).
With `CC(C)(C)[C@H](NC(=O)C(F)(F)F)C(=O)N1C[C@H]2[C@@H]([C@H]1C(=O)N[C@H](C#N)C[C@@H]1CCNC1=O)C2(C)C` the EC90 was 7.6 ± 2.8 µM (SARS-CoV-2; viral replication; Calu-3).
`Cc1ccc(NC(=O)c2ccc(CN3CCN(C)CC3)cc2)cc1Nc1nc(-c2cccnc2)cs1` gave an IC50 of 3.2 µM (SARS-CoV-2; viral replication).
With `C=C[C@@H]1C[C@]1(NC(=O)[C@@H]1C[C@@H]2CN1C(=O)[C@H](C(C)(C)C)NC(=O)O[C@@H]1C[C@H]1CCCCCc1nc3ccc(OC)cc3nc1O2)C(=O)NS(=O)(=O)C1CC1` the IC50 was 10.8 µM (SARS-CoV-2; viral replication; Vero E6).
With `Z-FA-FMK` the IC50 was 26.3 µM (SARS-CoV-2; viral replication).
With `CCR5` the Kd was 0.005 µM (HIV-1 gp120/CD4 complex; ternary complex binding).
`M2 transmembrane peptide (Influenza A virus)` has a pKa of 6.8 (solid-state NMR, refers to: His37; virus-mimetic membrane with cholesterol; membrane-bound tetramer, macroscopic, second protonation).
The Kd of `iberiotoxin` is reported as less than 0.001 µM (KCa1.1; whole-cell patch clamp).
With `M2 (Influenza A virus, UniProt P0DOF5)` the pKa was less than 5 (NMR, refers to: His37; tetramer, lowest pKa, fourth protonation).
For `CCN(CC)Cc1cc(Nc2ccnc3cc(Cl)ccc23)ccc1O`, the EC50 was 1.27 µM (SARS-CoV; cytopathic effect; Vero E6).
`COc1ccc([C@H]2c3[nH]c4ccc(Cl)cc4c3CCN2C(=O)Oc2ccc(Cl)cc2)cc1` gave an EC50 of 0.0026 µM (SARS-CoV-2; viral replication, refers to: viral titre; cell culture).
With `CCN(CC)CCO[C@H]1CC[C@@]2(C)C(=CC[C@@H]3[C@@H]2CC[C@]2(C)C(=O)CC[C@@H]32)C1` the IC50 was 8.05 µM (Ebola virus; viral replication, eGFP reporter virus; Vero E6).
`Plantazolicin` gave an MIC of 32 µg/mL (Bacillus anthracis; Sterne).
For `CC(CN(C)C)CN1c2ccccc2CCc2ccccc21` (centres unmarked), the IC50 was 10.9 µM (Marburg virus; pseudovirus entry, HIV pseudotype luciferase reporter; A549).
`MLEPFQILSISSFILSALHFMAWTIGHLNQIKR (BM2 transmembrane domain (Influenza B virus))` has a pKa of 5.9 (solid-state NMR, refers to: His27; peptide, VM+ membrane; wild-type tetramer, lower value).

Some of these lines once more:
The Kd of `iberiotoxin` is reported as less than 0.001 µM (KCa1.1; whole-cell patch clamp).
